Measurements pooled from the literature.
Every numbered part comes from another study and shows a few of its results, in no order.

Study 1 — technique: protein binding microarray; molecule type: double-stranded DNA, one strand shown; sample: in vitro; tested at: not given; baseline: not given; reading: higher = stronger binding
Target: Histone acetyltransferase KAT6A, both winged helices, GST fusion (KAT6A, Homo sapiens, UniProt Q92794, residues 1-181)
Notes: 8-mer, flanks averaged, mean of 2 arrays, mostly near background
Residues (chain): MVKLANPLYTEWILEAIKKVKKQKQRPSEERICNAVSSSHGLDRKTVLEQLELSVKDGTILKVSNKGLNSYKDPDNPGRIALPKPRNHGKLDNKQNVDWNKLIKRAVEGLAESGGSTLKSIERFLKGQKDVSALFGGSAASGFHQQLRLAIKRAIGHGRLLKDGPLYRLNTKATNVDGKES
For `GACGCGTA`, the E-score was 0.295.
For `AGGGCTTC`, the E-score was -0.13.
With `CTGCACTA` the E-score was -0.00737.
`CTCACAAG` has an E-score of -0.0537.
With `CCTGCAGC` the E-score was -0.0341.
With `ACTTTTCC` the E-score was -0.0534.
The E-score of `ACAACCAG` is reported as 0.0153.
For `ACCCCCCA`, the E-score was -0.369.
The E-score of `GGCCCGTA` is reported as 0.211.

Study 2 — technique: universal PBM; molecule type: double-stranded DNA, one strand shown; sample: in vitro; tested at: not given; reading: higher = stronger binding
Target: Sal-like protein 4, full length isoform B (SALL4, Homo sapiens, UniProt Q9UJQ4-2, residues 1-616)
Notes: 8-mer, flanks averaged, mean of replicates
`CCCTATTC` gave an E-score of -0.0622.
`ACGCCTTC` gave an E-score of -0.0565.
`CCCAGCGC` has an E-score of -0.332.
`CAGACGAA` gave an E-score of 0.0832.
For `AACCCTGT`, the E-score was -0.154.

Study 3 — technique: protein-binding microarray; molecule type: double-stranded DNA, one strand shown; sample: in vitro; tested at: 0.8 µM; notes: whole 60-bp probe, no competitor; reading: higher = stronger binding
Target: Centromere-binding protein 1, full length, N-terminal tag (CBF1, Saccharomyces cerevisiae, UniProt P17106, residues 1-351)
UniProt P17106, sequence (whole entry, looked up): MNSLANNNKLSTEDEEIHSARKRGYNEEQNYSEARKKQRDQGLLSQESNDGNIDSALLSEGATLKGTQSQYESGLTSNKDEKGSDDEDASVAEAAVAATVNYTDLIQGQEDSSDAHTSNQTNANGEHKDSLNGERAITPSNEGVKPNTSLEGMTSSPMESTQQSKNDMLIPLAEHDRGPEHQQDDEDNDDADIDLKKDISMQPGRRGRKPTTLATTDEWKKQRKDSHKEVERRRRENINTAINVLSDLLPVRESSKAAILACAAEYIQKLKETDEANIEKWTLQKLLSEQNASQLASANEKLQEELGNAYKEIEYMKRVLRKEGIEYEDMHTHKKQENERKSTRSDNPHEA
With `GAATGCTTTACTATCCACGTTCGAATATTATTTTAGGTCTTGATTCGCTTGACGCTGCTG` the fluorescence intensity was 551 a.u.
With `CCTAACTACTATAATCAGATGTTATAGCTTCGTACAGTCTTGATTCGCTTGACGCTGCTG` the fluorescence intensity was 548 a.u.
For `GAATGCCGGTGAGATCACGAGTAGCAGAAGAAATAGGTCTTGATTCGCTTGACGCTGCTG`, the fluorescence intensity was 1250 a.u.
The fluorescence intensity of `TGTACGAAGCTATGTCATCATAGTATAGTAGTTAGGGTCTTGATTCGCTTGACGCTGCTG` is reported as 518 a.u.

Mixed results
With `PhoQ, residues 284 288 289 292 302 303 SLGVVW` the fold induction was 0.562 (PhoP, residues 12 14 15 18 19 LYHSL (Escherichia coli, UniProt P23836); Sort-seq, measured: YFP reporter; E. coli; PhoQ-PhoP variant library, together with: 10 µM Mg2+; baseline: high Mg2+ state, higher = stronger signaling).

For quick reference, copied from above (study 1):
For `ACCCCCCA`, the E-score was -0.369.
The E-score of `GGCCCGTA` is reported as 0.211.
